Published values from different studies.
Every numbered part comes from another study and shows a few of its results, in no order.

Block 1
Target: Histone acetyltransferase KAT6A, winged helix 1, GST fusion (KAT6A, Homo sapiens, UniProt Q92794, residues 1-85)
Method: protein binding microarray
Molecule type: double-stranded DNA, one strand shown
Medium: in vitro
Tested at: not given
Notes: 8-mer, flanks averaged, mean of 2 arrays, mostly near background
Reference: not given
Reading: higher = stronger binding
Quantity: E-score
Construct (chain): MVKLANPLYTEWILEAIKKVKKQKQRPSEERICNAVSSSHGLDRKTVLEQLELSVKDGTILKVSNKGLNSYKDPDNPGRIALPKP
ACCCGGAG: 0.202
AGACCCCT: -0.239
AATTATGG: -0.0209
ATGGCATA: -0.246
AGTCATAG: -0.211
AGTCACTA: -0.0827
TAAGAATA: -0.0217
ATAGCGTG: 0.0797
AACTGAGA: -0.154
GGGCCCCA: 0.0277
ACGCCCCT: -0.0419
AGCGCTGA: 0.329
GGATAGAC: -0.00485
GGTCTACA: -0.000965
GCACTGGC: -0.00251
CCAGTTCG: -0.132
ACCCCCCC: -0.0615
ACGAAACA: -0.0996
GAGAAGCC: 0.0573
ATTGCGCC: 0.274
AGGCATGG: 0.1
GCGGGGGA: 0.236
CCCACGCG: 0.292
GAGCTATC: 0.0577
CACTTAGC: -0.0471

Block 2
Target: PABPC1L2, full length, GST fusion (mouse, UniProt A0ABA7IW68)
Method: RNAcompete
Molecule type: RNA
Medium: in vitro
Tested at: 20 nM
Notes: 7-mer, probes averaged, single round
Reference: mean of 7-mers
Reading: higher = stronger binding
Quantity: 7-mer Z-score
Construct (chain): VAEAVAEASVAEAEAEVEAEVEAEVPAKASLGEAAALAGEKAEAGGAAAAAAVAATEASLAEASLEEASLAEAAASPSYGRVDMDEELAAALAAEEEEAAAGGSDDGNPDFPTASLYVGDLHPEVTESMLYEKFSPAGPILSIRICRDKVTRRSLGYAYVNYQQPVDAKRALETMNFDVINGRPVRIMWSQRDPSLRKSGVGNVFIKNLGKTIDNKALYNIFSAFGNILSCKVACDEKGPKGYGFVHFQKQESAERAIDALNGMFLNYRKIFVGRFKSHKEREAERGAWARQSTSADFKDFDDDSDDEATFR
GCUCUUU: -0.298
CCCGAAU: -0.219
UUGCGAG: -0.155
CCUAAGG: -0.253
AGAAAGA: 2.18
AUUGAUU: -0.146
GCGGGUU: -0.0409
ACAGGAU: 0.164
AGUUACG: -0.139
AUGAUUG: -0.217
GUGGUGG: -0.0935
GCGCCAC: -0.122
UCGAAAC: -0.153
CCCUAGG: -0.307
GCGACAU: 0.0315
AAGCUGA: 0.066
UGCCUUC: -0.391
AAGGCCA: 0.113
CUAAUUC: -0.269
CACGGAU: -0.0174
CCAUAAU: -0.166
GUUUUAC: -0.3
UCAAUAC: -0.173
AUAGGGA: 0.196
GCUGUUU: -0.445

Block 3
Target: Sal-like protein 4, full length isoform A (SALL4, Homo sapiens, UniProt Q9UJQ4, residues 1-1053)
Chain of UniProt Q9UJQ4 (whole entry, looked up): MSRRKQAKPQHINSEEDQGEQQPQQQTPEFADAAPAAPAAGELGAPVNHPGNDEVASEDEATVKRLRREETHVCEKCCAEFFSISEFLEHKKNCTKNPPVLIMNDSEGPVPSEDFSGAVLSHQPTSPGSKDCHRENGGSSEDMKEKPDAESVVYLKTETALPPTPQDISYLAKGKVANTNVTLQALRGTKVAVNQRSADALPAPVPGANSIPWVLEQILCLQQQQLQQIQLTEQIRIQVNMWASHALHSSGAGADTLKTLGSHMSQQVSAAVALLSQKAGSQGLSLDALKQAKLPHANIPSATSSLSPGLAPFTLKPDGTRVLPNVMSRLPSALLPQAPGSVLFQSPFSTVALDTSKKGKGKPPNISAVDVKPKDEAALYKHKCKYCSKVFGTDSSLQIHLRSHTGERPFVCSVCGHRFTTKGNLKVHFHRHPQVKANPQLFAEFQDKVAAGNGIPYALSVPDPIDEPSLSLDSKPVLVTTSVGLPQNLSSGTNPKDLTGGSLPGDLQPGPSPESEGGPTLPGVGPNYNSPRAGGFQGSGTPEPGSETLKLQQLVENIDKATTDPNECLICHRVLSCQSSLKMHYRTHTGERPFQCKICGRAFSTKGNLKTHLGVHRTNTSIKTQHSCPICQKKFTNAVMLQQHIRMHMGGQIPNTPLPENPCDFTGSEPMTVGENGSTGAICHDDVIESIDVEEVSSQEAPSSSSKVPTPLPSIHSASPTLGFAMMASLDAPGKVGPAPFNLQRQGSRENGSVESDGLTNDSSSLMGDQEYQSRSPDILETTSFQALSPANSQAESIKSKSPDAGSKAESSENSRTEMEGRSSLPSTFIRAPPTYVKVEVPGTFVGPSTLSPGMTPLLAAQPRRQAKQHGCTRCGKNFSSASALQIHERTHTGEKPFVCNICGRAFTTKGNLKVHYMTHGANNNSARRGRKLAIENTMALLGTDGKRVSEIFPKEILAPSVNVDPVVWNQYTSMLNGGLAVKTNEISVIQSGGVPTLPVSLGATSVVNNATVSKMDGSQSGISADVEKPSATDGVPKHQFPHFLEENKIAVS
Method: universal PBM
Molecule type: double-stranded DNA, one strand shown
Medium: in vitro
Tested at: 600 nM
Notes: 8-mer, flanks averaged, mean of replicates
Reading: higher = stronger binding
Quantity: E-score
CTGGGTTC: -0.226
CCTCAACC: -0.215
TGAAAACA: 0.269
CCAGTCGC: -0.237
ACAACAAG: 0.132
TGCACGAA: 0.118
AGTTTATC: 0.195
ACCGTGCA: -0.186
AGGGAAGC: -0.0276
AGACCATA: 0.118
ACCTGGAC: -0.259
CGTCTAGC: -0.0398
ACAAACCC: 0.0318
GTGATTAA: 0.233
GCAAAGGA: 0.0708
CCACGCCC: -0.374
GTCCCTAA: -0.0124
CGGTGCAC: -0.271
ATTTGCCA: 0.0475
ATACCTAG: 0.126
TGGCGCCA: -0.36
ATAAGAAG: 0.233
AGAAAGGC: -0.0461
CGCTACCA: -0.156
AGGTGGAT: -0.0162

Block 4
Target: RNA binding protein fox-1 homolog 2, RRM domain, GST-SBP tag (RBFOX2, Homo sapiens, UniProt O43251-10, residues 100-194)
Method: RNA Bind-n-Seq
Molecule type: RNA
Medium: in vitro
Tested at: 365 nM
Notes: natural RNA segment, single round, ends assumed
Reference: no-protein control
Reading: higher = stronger binding
Quantity: RBNS enrichment (R)
Construct (chain): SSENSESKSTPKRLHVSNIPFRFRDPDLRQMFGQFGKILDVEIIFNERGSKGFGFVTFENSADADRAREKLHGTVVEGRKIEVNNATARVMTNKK
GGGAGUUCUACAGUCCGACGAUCUUCUUGUUAAAAUGACUGAUUCUCGUGCAUGUGAAAGGCUCUGGGGAAUGAAUACCUGUUUGGUCCAAACUUACUGUAUCAUAAUGCUGUAUAUGUUGAAAACGUAAUACUGGAAUUCUCGGGUGCCAA: 13.7
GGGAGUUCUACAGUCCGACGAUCUGAGAAGAAGCACAAUUUUGAUUUUGAUGAGUCACUUUCUGUAAACAAUCUUGGUCUAUCUUUACCCUUAUACCUUAUCUGUAAUUUACCAUUUAUUGUAUUUGCAAAGCUGGAAUUCUCGGGUGCCAA: 0.294
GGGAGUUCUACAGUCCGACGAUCGAUGACCAGAAUGAAAGCUUGCUCUGCCUCCUGCCAGCCAGAAUUGGUGGCGGGACUUGGGGAUACAGCGUGAAGGUGGGGAAGUUGCACAGCAGAAAACAGAAUUGAAGUGGAAUUCUCGGGUGCCAA: 1.16
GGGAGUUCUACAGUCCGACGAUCCUGCUUCACUUUCUCCAACCCUUCGUAGCUGCCUGGGCUCUUUUCCAACCUGUCAGGCUGGCGCCUUAGAACUGAGCCUUAGGUUGGGCAGCGGGUCUCUGUCCUGGUAUUGGAAUUCUCGGGUGCCAA: 0.536
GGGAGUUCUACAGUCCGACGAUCAUGAUAAAAUUCCACAAAAUGGAAAUAAAACUCAAAUUUCUUUAGCAUUGUGUAAAUAAAUCUGAAUGUGUUUAACUUUGUACUGGUAAUUUUCUGUAUAUUUGGAAUAUUGGAAUUCUCGGGUGCCAA: 0.623
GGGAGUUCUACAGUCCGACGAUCGGGAAGUAGCUUCUCCCAGCUGUUCCUCACCUCACCAGAUAUUUUCCCAAAGCCGAAACAAGAAAAGUCAGCAUGCCUGGGGCUAGAAGCGGAAUGUAAGAUACGUCUCUUGGAAUUCUCGGGUGCCAA: 26.2
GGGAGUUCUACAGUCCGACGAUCUUAUUCCUAUUAUUGUUAUGAACCUUCUUAUUUUACAUUUGAGGGAUAAAGGCAAAUGAUUUGUGAGUCUUCUAGUUACUGGACCGAGUUUUCUGCUGGAUCUGGUGGGAUGGAAUUCUCGGGUGCCAA: 0.563
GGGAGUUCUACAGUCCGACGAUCUCCUACCUUACAUGAAAUCCAUUCAACCGGCUCUGGACACUUCUCUUAUCUGUUCCCUUCCUGGUUUCCAAAGAAGCCCUCUGUGAACAUCAUCAAAGCAUGGGUACCCCUGGAAUUCUCGGGUGCCAA: 2.65
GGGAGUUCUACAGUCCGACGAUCUAAAGAAAGAGCAGCCUUUGUUAAUUUACUGUGGAGUUACAACCCGCAUGCUCCCUACUCCCCCACGUCUUGAUGGAACAGGUGCAUUCAAGCUAGGAAACGGAGAGAACUGGAAUUCUCGGGUGCCAA: 2.11
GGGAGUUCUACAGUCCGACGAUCGUGUAUGGAAGGCGGGGCUCAUGGCUGAUUGGCAAUAAAAUGGCGGCUGCCGUUGUCAUUGUCUCCAUCUCAGGAUCUCACCUCAGAGACCCUUCCUCCCCUACCCCAAGUGGAAUUCUCGGGUGCCAA: 0.258
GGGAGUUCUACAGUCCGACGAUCUAAGUUCAGAAGUCUUAAGUGUGCAAGCGUUUAUGUGACCGUGCCAUUCCAGAGUGCAUCAGAACUGUCAUCCCUUCCAGGACCUUCUCAGGAGUAACACAUCAGGUAUGUGGAAUUCUCGGGUGCCAA: 0.275
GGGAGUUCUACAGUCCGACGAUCCAGCCCAGGCUCAGUUCUUGGGACCCACAUGGUAGAAGGAGUGUACCGACAUUCCCCCAAGUUGUCCUCUAACCUCCACAUGUGUGCUGUGGUAUGUGUGUUCUCACGUGUGGAAUUCUCGGGUGCCAA: 5.21

Repeated from above (block 1):
ATAGCGTG: 0.0797
AACTGAGA: -0.154
GGGCCCCA: 0.0277
ACGCCCCT: -0.0419
AGCGCTGA: 0.329
GGATAGAC: -0.00485
GGTCTACA: -0.000965
